Measured values of several laboratories.
Lines come from different studies, so protocols differ. Values joined by “and” are separate records of one study, mostly repeats; a detail may differ. Numbers after ± are the reported error. In brackets after ≈: the same amount, converted by molar mass.

The IC50 of `Nc1nc(-c2ccccc2)nc2[nH]nc(Nc3cccnc3)c12` is reported as 55.7 µM (rhinovirus A2; viral cytopathic effect; HeLa).
With `CCCCCCCCCCCC[N+](C)(C)CCCCCCCCOc1cc(OCCCCCCCC[N+](C)(C)CCCCCCCCCCCC)cc(OCCCCCCCC[N+](C)(C)CCCCCCCCCCCC)c1.[Br-].[Br-].[Br-]` the MIC was 32 µM (Enterococcus faecalis; OG1RF).
`Nc1c(C(=O)c2ccc(Br)cc2)sc(S)c1-c1nc2ccccc2s1`: “viral titre reduction” 30% (coxsackievirus B4; plaque reduction; non-toxic concentration).
`CC1C=CC=CC(C)C2C=CC3CC(C)(O)C(Cl)C(C)C3C2C(=O)C(Cl)(Cl)C(=O)C(C)C(=O)O1` (stereo not drawn) has an MIC of 0.1 µg/mL (Staphylococcus aureus; MSSA clinical isolate; PEN ERY TET resistant).
`C=C(NC(=O)c1csc(-c2nc3c(cc2O)-c2nc(cs2)C(=O)NC(C(C)O)C(=O)NC(=C(C)OC)c2nc(cs2)C(=O)NC2c4nc(cs4)C(=O)NC(COC(=O)c4c5c6c(cccc6n4O)COC(=O)C(OC4CC(C)(O)C(N(C)C)C(C)O4)C2OC5)c2nc-3cs2)n1)C(N)=O` (stereo not drawn) has an MIC50 of 0.0078 µg/mL (≈ 5.43 nM) (Streptococcus pneumoniae; PRSP; 10 isolates).
`COC1C=COC2(C)Oc3c(C)c(O)c4c(c3C2=O)C2=NC3(CCN(CC(C)C)CC3)NC2=C(NC(=O)C(C)=CC=CC(C)C(O)C(C)C(O)C(C)C(OC(=O)Nc2cnccn2)C1C)C4=O` (stereo not drawn) gave an IC90 of 0.313 µM (Mycobacteroides abscessus; bacterial growth; subsp. massiliense 097 clinical isolate; rough, slow grower).
The inhibition of `C/C=C(/C)C(=O)O[C@@H]1C=C(C)CC[C@]2(O)[C@@H](C(C)C)CC(=O)[C@]12C` is reported as 0% (Helicobacter pylori; microbial growth, broth dilution; 1.95 µg/mL).
With `C[C@@H]1C(=O)O[C@@H](C)/C=C/C=C\[C@@H](C)[C@@H]2C=C[C@@H]3C[C@@]4(C)O[C@H]4[C@@H](C)[C@H]3[C@@H]2C(=O)C(Cl)(Cl)C1=O` the MIC was 0.1 µg/mL (Staphylococcus aureus; MRSA clinical isolate; OXA resistant).
`CCCCCCCCCC(=O)N[C@@H](Cc1c[nH]c2ccccc12)C(=O)N[C@H](CC(N)=O)C(=O)N[C@@H](CC(=O)O)C(=O)N[C@@H]1C(=O)NCC(=O)N[C@@H](CCCNC(=O)OC2/C=C/CCCCC2)C(=O)N[C@@H](CC(=O)O)C(=O)N[C@H](C)C(=O)N[C@@H](CC(=O)O)C(=O)NCC(=O)N[C@H](CO)C(=O)N[C@@H]([C@H](C)CC(=O)O)C(=O)N[C@@H](CC(=O)c2ccccc2N)C(=O)O[C@@H]1C` (stereo partly drawn) — result for “peak heat flow”: 0 µW (Staphylococcus aureus; planktonic bacterial growth, isothermal microcalorimetry; MSSA; 1.0 µg/mL, 24 h, 37 °C).
With `CC(=O)OC[C@H]1O[C@@H](Sc2sc(C(=O)c3ccc(Cl)cc3)c(N)c2-c2nc3ccccc3s2)[C@H](OC(C)=O)[C@@H](OC(C)=O)[C@@H]1OC(C)=O` the viral reduction was 23.3% (coxsackievirus B4; plaque reduction; non-toxic dose NG, mean over three titres).
`Cc1cc(C(=O)Nc2nc3cccc(C)c3n2[C@H]2CCCCN(C(=O)/C=C/CN(C)C)C2)ccn1` gave a proliferation of 100% (Trypanosoma brucei brucei; Lister 427; 50 µM, 0 h, kill kinetics).
The inhibition zone of `CN(Cc1ccc(C2(C(F)(F)F)CCC2)cc1)Cc1cccc2ccccc12` is reported as 34.2 mm (Trichophyton rubrum; microbial growth, disc diffusion; ATCC28188; 0.032 µg/mL, 6 days).
The MIC of `CCCCCCn1cc[n+](CCCCCCOc2cc(OCCCCCC[n+]3ccn(CCCCCC)c3)cc(OCCCCCC[n+]3ccn(CCCCCC)c3)c2)c1.[Br-].[Br-].[Br-]` is reported as 0.5 µM (Enterococcus faecalis; OG1RF).
`Nc1nc(-c2ccccc2)nc2[nH]nc(Nc3c(F)cc(F)cc3F)c12` has an IC50 of 13.5 µM (rhinovirus A2; viral cytopathic effect; HeLa).
For `O=c1c(-c2nc3ccccc3s2)cc2c(n1NS(=O)(=O)c1ccc(Cl)cc1)CCCCCC2`, the plaque reduction was 66.7% (coxsackievirus B4; viral replication, plaque; BGM; non-toxic dose, mean of three titres).
For `FC(F)(F)c1cccc(CNc2nc(NC3CCN(Cc4ccccc4)CC3)c3nc[nH]c3n2)c1`, “log2 fold change” read 1.93 (Cryptococcus neoformans; RNA-seq, item: MIPS (CNAG_01539); wild type; 48 µg/mL, 3 h; relative to: untreated wild type).
For `Cc1ccc(C(=O)c2sc(S)c(-c3nc4ccccc4s3)c2N)cc1`, “viral titre reduction” read 20% (coxsackievirus B4; plaque reduction; non-toxic concentration).
For `Cc1cccc2c1N(C(=O)n1ccnn1)CC2`, the germination rate was 51.3% and 65.7% and 78% and 84% and 71.4% and 70.6% (Arabidopsis thaliana; kai2 mutant, seeds; 10 µM, 72 h).
`CC(=O)OC[C@H]1O[C@@H](Sc2sc(C(=O)c3ccc(C)cc3)c(N)c2-c2nc3ccccc3s2)[C@H](OC(C)=O)[C@@H](OC(C)=O)[C@H]1OC(C)=O` has a viral reduction of 10% (human adenovirus 7; plaque reduction; non-toxic dose NG, mean over three titres).
`Nc1nc(-c2ccc(Cl)cc2)nc2[nH]nc(Nc3cccc(F)c3)c12` has an IC50 of 2.23 µM (rhinovirus A2; viral cytopathic effect; HeLa).
The IC90 of `CC(C)[C@@H]1NC(=O)[C@@H](CCCNC(=N)N)NC(=O)[C@H]([C@@H](C)O)NC(=O)[C@@H](CCCN)NC(=O)[C@H](Cc2ccccc2)NC(=O)[C@@H](Cc2ccc(F)c(F)c2)NC1=O` is reported as over 20 µM (Balamuthia mandrillaris; parasite growth, ATP luminescence).
`CC(=O)OC[C@H]1O[C@@H](Sc2sc(C(=O)c3ccc(Br)cc3)c(N)c2-c2nc3ccccc3s2)[C@H](OC(C)=O)[C@@H](OC(C)=O)[C@@H]1OC(C)=O` has a viral reduction of 30% (human adenovirus 7; plaque reduction; non-toxic dose NG, mean over three titres).
`CO[C@@H]1OC[C@@H](O)[C@H](O)[C@H]1O` has an inhibition of 42.2% (Helicobacter pylori; microbial growth, broth dilution; 125 µg/mL).
Under “viral titre reduction”, `CC(=O)O[C@@H]1[C@@H](OC(C)=O)[C@H](Sc2sc(C(=O)c3ccc(Br)cc3)c(N)c2-c2nc3ccccc3s2)OC[C@H]1OC(C)=O` is recorded as 60% (coxsackievirus B4; plaque reduction; non-toxic concentration).
With `O=C(CCCc1cn(C[C@H]2O[C@@H]3O[C@H]4[C@H](O)[C@@H](O)[C@@H](O[C@H]5[C@H](O)[C@@H](O)[C@@H](O[C@H]6[C@H](O)[C@@H](O)[C@@H](O[C@H]7[C@H](O)[C@@H](O)[C@@H](O[C@H]8[C@H](O)[C@@H](O)[C@@H](O[C@H]2[C@H](O)[C@H]3O)O[C@@H]8Cn2cc(CCCC(=O)N[C@H]3CCOC3=O)nn2)O[C@@H]7Cn2cc(CCCC(=O)N[C@H]3CCOC3=O)nn2)O[C@@H]6Cn2cc(CCCC(=O)N[C@H]3CCOC3=O)nn2)O[C@@H]5Cn2cc(CCCC(=O)N[C@H]3CCOC3=O)nn2)O[C@@H]4Cn2cc(CCCC(=O)N[C@H]3CCOC3=O)nn2)nn1)N[C@H]1CCOC1=O` the inhibition was 3 ± 1% (Escherichia coli; LuxR reporter, antagonist; DH5α sensor strain; 10 µM, together with: OHHL 200 nM).
`Nc1nc(-c2ccccc2)nc2[nH]nc(Nc3ccc(Cl)cc3)c12` has an IC50 of 6.03 µM (rhinovirus A2; viral cytopathic effect; HeLa).
`O=c1c(-c2nc3ccccc3s2)cc2c(n1NS(=O)(=O)c1ccccc1)CCCCCC2` gave a plaque reduction of 0% (human adenovirus 7; viral replication, plaque; HEp-2; non-toxic dose, mean of three titres).
The IC80 of `CNCc1ccc2c(c1)C[C@H](CNC(=N)N)[C@H]2NC(=O)C(=O)Nc1ccc(Cl)c(F)c1` is reported as 36.2 µM (Human immunodeficiency virus 1; viral infection, pseudovirus neutralization; TZM-bl, 191084 B7-19; clade A transmitted/founder).
For `CC(C)(C)NCC(SS(=O)(=O)O)c1ccccc1` (stereo not drawn), “spleen weight decrease” read 26% (Schistosoma mansoni; perfusion day 44; infected Swiss Webster mice; 600 mg/kg single dose, 1056 h, dosed day 1 post-infection; relative to: vehicle control).
With `CC=C(C)C(=O)OC1CC2C(C=C(C)C3C(OC(C)=O)CC(=O)C13C)OC(=O)C2C` (stereo not drawn) the inhibition was 0% (Helicobacter pylori; microbial growth, broth dilution; 1.95 µg/mL).
